Measured values from different studies.
Each line is one published result; not all experiments were run side by side.

Compound	target or system	assay	test system	conditions	how to read	quantity	value
CO/C1=C\C(C)=C\[C@@H](C)[C@@H](O)[C@@H](C)C/C(C)=C/C=C/[C@H](OC)[C@@H]([C@@H](C)[C@@H](O)[C@H](C)[C@@]2(O)C[C@@H](O)[C@H](C)[C@@H](C(C)C)O2)OC1=O	human dendritic cells	item: phagosomal pH	–	concentration not given	reference: DMSO	fluorescein fluorescence increase	2 fold
CN[C@@](C)(C[18F])C(=O)O	DU-145 tumour model	–	host not given, bone	1 h, tumour-bearing	–	tracer uptake	1.5 %ID/g
[123I]c1cncc(OC[C@@H]2CCN2)c1	–	SPECT	human, pons	intravenous bolus, 8.6 mCi	reference: plasma	tissue/plasma ratio	25.2
Cc1c(Cc2ccc(F)cc2)c(=O)n2c([nH]c3ccccc32)c1C#N	Vero	cell growth or viability	–	–	–	IC50	16 µg/mL
C[C@H]1CNCCc2ccc(Cl)cc21	–	–	male Sprague-Dawley rat, plasma	subcutaneous, 1 mg/kg, single dose	–	AUC(0-t)	58.5 ng·h/mL
CC(O)(CS(=O)(=O)c1ccc(F)cc1)C(=O)Nc1ccc(C#N)c(C(F)(F)F)c1 (stereo not drawn)	LAPC4	cell growth or viability, ATP luminescence	–	–	–	IC50	1.3 µM
Nc1cc(I)c(I)cc1N	MRC5	cell growth or viability	–	72 h	–	IC50	150 µM
Cc1c(Cc2ccc(Cl)c(Cl)c2)c(=O)n2c([nH]c3ccccc32)c1C#N	Vero	cell growth or viability	–	–	–	IC50	4 µg/mL
CCCCCc1cc(O)c2c(c1)OC(C)(C)c1ccc(C)cc1-2	SK-OV-3	cell growth or viability, MTT	–	72 h	–	IC50	30.6 µM
C[n+]1ccc(-c2ccccc2)cc1	MN9D	cell growth or viability, MTT	–	16 h	–	IC50	118 µM
C[C@]12CC[C@H]3[C@@H]([C@H](/C=C/C=C/C=C/[C@@H]4CC5=CC(=O)CC[C@]5(C)[C@H]5CC[C@]6(C)[C@H](O)CC[C@H]6[C@H]45)CC4=CC(=O)CC[C@@]43C)[C@@H]1CC[C@H]2O (relative stereo)	LNCaP	–	–	together with: testosterone or dihydrotestosterone	–	complete growth inhibition	0.25 to 0.5 µM
CC(O)(CS(=O)(=O)c1ccc(F)cc1)C(=O)Nc1ccc(C#N)c(C(F)(F)F)c1 (stereo not drawn)	LNCaP	PSA expression, antagonist	–	1 day, charcoal-stripped serum 3 days, together with: 1 nM DHT	–	Ki	0.19 µM

For quick reference, copied from above:
Compound	target or system	assay	test system	conditions	how to read	quantity	value
CO/C1=C\C(C)=C\[C@@H](C)[C@@H](O)[C@@H](C)C/C(C)=C/C=C/[C@H](OC)[C@@H]([C@@H](C)[C@@H](O)[C@H](C)[C@@]2(O)C[C@@H](O)[C@H](C)[C@@H](C(C)C)O2)OC1=O	human dendritic cells	item: phagosomal pH	–	concentration not given	reference: DMSO	fluorescein fluorescence increase	2 fold
